Assay results from different studies.
Lines come from different studies, so protocols differ. ± gives the spread as reported.

SMILES | test | system | setting | AUC(0-t)
CC(C)[C@H](N)C(=O)NCCCS(=O)(=O)O | – | human, both sexes, plasma | oral, 172 mg capsule | 5.89 ± 1.19 µg·h/mL
CCCCC1(CCCC)CN(c2ccccc2)c2cc(SC)c(OCC(=O)N[C@@H](C(=O)NCC(=O)O)c3ccccc3)cc2S(=O)(=O)C1 | – | human, plasma | oral, 15 mg, before breakfast | 0.00151 µg·h/mL
CC(=O)c1c(C)c2cnc(Nc3ccc(N4CCNCC4)cn3)nc2n(C2CCCC2)c1=O | – | human | oral, 95 mg/m^2 single dose, day 1 | 2.38 µg·h/mL
Cc1c(C(=O)Nc2ccc(N3C[C@@H](C)O[C@@H](C)C3)nc2)cccc1-c1ccc(OC(F)(F)F)cc1 | – | human, plasma | oral, 800 mg, 168 h, single dose, geometric mean | 9.73 µg·h/mL
O=C(NCCN1CCCC1)c1cc(-c2ccc(CN3CCOCC3)cc2)nc2ccc(F)cc12 | LC-MS/MS | human, whole blood | oral, 200 mg, single dose, geometric mean | 2.63 µg·h/mL
NS(=O)(=O)OC[C@@H]1C[C@@H](n2ccc3c(N[C@H]4CCc5ccccc54)ncnc32)C[C@@H]1O | – | human | iv, 8 mg/m^2, day 8, geometric LS mean, together with: fluconazole | 0.491 µg·h/mL
CN(Cc1nc2c(N)nc(N)nc2[nH]c1=O)c1ccc(C(=O)N[C@@H](CCC(=O)O)C(=O)O)cc1 | – | human, plasma | oral, 20 mg methotrexate, day 1, alone, arithmetic mean | 1.8 µg·h/mL
Cc1cc(C)c2c(c1)[C@@H](N(Cc1cc(C(F)(F)F)cc(C(F)(F)F)c1)c1nnn(C)n1)CCCN2C[C@H]1CC[C@H](C(=O)O)CC1 | – | human, plasma | oral, 600 mg once daily, steady state, geometric mean | 13.7 µg·h/mL
COc1cccc(-c2ccc(NC(=O)C3=C(C(=O)O)CCC3)c(F)c2)c1 | – | human, male, plasma | oral, 40 mg once daily, day 13, geometric mean | 285 µg·h/mL
Cc1cc(-c2nnc(N)nc2-c2ccc(F)cc2)cc(Cl)n1 | – | human patients, plasma | oral, 75 mg capsule, single dose, arithmetic mean | 3.33 µg·h/mL
C/C(=C\c1csc(C)n1)[C@@H]1C[C@@H]2O[C@]2(C)CCC[C@H](C)[C@H](O)[C@@H](C)C(=O)C(C)(C)[C@@H](O)CC(=O)N1 | LC-MS/MS | human, plasma | intravenous infusion, 70 mg, 3 h infusion | 2.25 µg·h/mL
CCS(=O)(=O)N1CC(CC#N)(n2cc(-c3ncnc4[nH]ccc34)cn2)C1 | – | healthy Chinese human subjects, plasma | oral, 2 mg, single dose, mean | 0.134 µg·h/mL
O=C(NC[C@H](O)CO)c1ccncc1Nc1ccc(I)cc1F | – | human patients, plasma | oral, 60 mg single dose, day 1, median, together with: FOLFIRI | 1.39 µg·h/mL
CN(CCOc1ccc(CC2SC(=O)NC2=O)cc1)c1ccccn1 (stereo not drawn) | – | human, both sexes, plasma | oral, 4 mg alone, 24 h, day 1, geometric mean | 1440 µg·h/mL
CN[C@@H]1COc2c(S(=O)(=O)NC(=O)Nc3c4c(cc5c3CCC5)CCC4)cnn2C1 | – | human | oral, 600 mg, fasted, geometric LS mean | 170 µg·h/mL
Cc1ccc(NC(=O)c2ccc(CN3CCN(C)CC3)cc2)cc1Nc1nccc(-c2cncc(-c3oncc3C)c2)n1 | – | older healthy human adults, plasma | oral, 175 mg single dose, fed, mean | 170 µg·h/mL
C[C@H]1O[C@@H](O[C@H]2[C@@H](O)C[C@H](O[C@H]3[C@@H](O)C[C@H](O[C@H]4CC[C@@]5(C)[C@H](CC[C@@H]6[C@@H]5C[C@@H](O)[C@]5(C)[C@@H](C7=CC(=O)OC7)CC[C@]65O)C4)O[C@@H]3C)O[C@@H]2C)C[C@H](O)[C@@H]1O | – | human | oral, dose not given, day 19, together with: isavuconazole | 0.0401 µg·h/mL
C=CC[C@@H]1/C=C(\C)C[C@H](C)C[C@H](OC)[C@H]2O[C@@](O)(C(=O)C(=O)N3CCCC[C@H]3C(=O)O[C@H](/C(C)=C/[C@@H]3CC[C@@H](O)[C@H](OC)C3)[C@H](C)[C@@H](O)CC1=O)[C@H](C)C[C@@H]2OC | – | healthy human, whole blood | oral, 5 mg single dose, arithmetic mean, together with: isavuconazole 200 mg daily | 0.68 µg·h/mL
CN(C)Cc1c(C(=O)NCCOc2ccc(C(=O)NO)cc2)oc2ccccc12 | – | human, plasma | oral, 80 mg single dose | 0.294 ± 0.0765 µg·h/mL
CC(C)NC[C@@H](C(=O)N1CCN(c2ncnc3c2[C@H](C)C[C@H]3O)CC1)c1ccc(Cl)cc1 | – | human, Severe hepatic function, plasma | oral, 100 mg single dose, NCI classification, geometric mean | 0.859 µg·h/mL
C[C@@H](Oc1cc(-c2cnn(C3CCNCC3)c2)cnc1N)c1c(Cl)ccc(F)c1Cl | – | healthy human, plasma | oral, 250 mg single fasted, arithmetic mean | 2.49 ± 1.07 µg·h/mL

SMILES | test | system | setting | AUC(0-t)
CC(C)[C@@H](CS(=O)(=O)C(C)C)N1C(=O)[C@@](C)(CC(=O)O)C[C@H](c2cccc(Cl)c2)[C@H]1c1ccc(Cl)cc1 | – | human, plasma | oral, 60 mg, new tablet, fed, geometric LS mean | 2.33 µg·h/mL
COc1c(OCCCN2CCOCC2)ccc2c1N=C(NC(=O)c1cnc(N)nc1)N1CCN=C21 | – | human cancer patients, plasma | intravenous, 0.6 mg/kg weekly, cycle 1 day 1, compound alone, geometric mean | 1.21 µg·h/mL
O=C(O)CC[C@H]1CC[C@@](c2cc(F)ccc2F)(S(=O)(=O)c2ccc(Cl)cc2)CC1 | – | human patients, plasma | oral, 1400 mg/m2/week | 1320 to 2400 µg·h/mL
O=c1[nH]c(=O)c(Cc2cccc(C(F)(F)F)c2)c([C@H]2CC[C@H](c3ccccc3)CC2)[nH]1 | – | human, fasted, plasma | oral, 300 mg single dose, geometric mean | 2.94 µg·h/mL
COc1cc2c(cc1OC)[C@H]1CC(=O)[C@H](CC(C)C)CN1CC2 (racemic) | – | human CYP2D6 extensive metabolizers, plasma | oral, 25 mg, fasted, arithmetic mean | 0.00018 µg·h/mL
C=CC(=O)N1CCC([C@@H]2CCNc3c(C(N)=O)c(-c4ccc(Oc5ccccc5)cc4)nn32)CC1 | – | human | oral, 480 mg, single dose, mean | 2.77 µg·h/mL
CCCC[C@H](NC(C)=O)C(=O)N[C@H]1CCC(=O)NC[C@@H](C(=O)N[C@@H](Cc2c[nH]c3ccccc23)C(N)=O)NC(=O)[C@H](CCCNC(=N)N)NC(=O)[C@@H](Cc2ccccc2)NC(=O)[C@H](Cc2c[nH]cn2)NC1=O | – | healthy human, both sexes, plasma | subcutaneous, 1.0 mg once daily, day 1, arithmetic mean | 0.0494 µg·h/mL
O=C(Nc1c(Cl)cncc1Cl)c1ccc(OC(F)F)c(OCC2CC2)c1 | – | human adolescents, 12-17 years, plasma | topical, 0.3% cream once daily, day 15 | 0.0251 µg·h/mL
COc1cc(Nc2ncc3c(n2)-c2ccc(Cl)cc2C(c2c(F)cccc2OC)=NC3)ccc1C(=O)O | – | human, plasma | oral, 50 mg single, fasted | 21.2 µM·h
O=C(O)CNC(=O)c1c(O)c2ccccc2n(OCC2CC2)c1=O | LC-MS/MS | human, blood | oral, 200 mg multiple doses | 39.4 ± 12.3 µg·h/mL
CNc1nc(Nc2ccc(-n3cnc(C)n3)c(OC)c2)nc2c1CC[C@H]2c1ccc(F)cc1 | – | healthy humans, both sexes, plasma | oral, 900 mg single dose | 21.9 µg·h/mL
Cc1[nH]c(/C=C2\C(=O)Nc3ccccc32)c(C)c1CCC(=O)O | – | human patients | oral, 400 mg/m^2 three times daily, after meal, dose 82 | 17.3 ± 6.87 µg·h/mL
O=C(O)[C@H](c1ccccc1Cl)N1CCc2sccc2C1 | – | human patients, CYP3A4 wt/wt, plasma | oral, 75 mg clopidogrel daily, day 7, median | 10.1 µg·h/mL
C=CC(=O)Nc1cc(Nc2ncc(C(=O)OC(C)C)c(-c3cn(C)c4ccccc34)n2)c(OC)cc1N(C)CCN(C)C | – | human, fasted | oral, 20 mg single dose, arithmetic mean | 0.06 µg·h/mL
CNC(=O)c1ccc(-c2cnc3ncc(Cc4ccc5ncccc5c4)n3n2)cc1F | – | human moderate hepatic impairment | oral, 200 mg single dose, adjusted geometric mean | 5.66 µg·h/mL
CN(C)[C@@H](CCOc1cccc2ccccc12)c1ccccc1 | – | healthy male humans, plasma | oral, 60 mg, together with: udenafil 200 mg | 2.34 ± 0.997 µg·h/mL
N#C[C@@H]1C[C@@H]2C[C@@H]2N1C(=O)[C@@H](N)C12CC3CC(CC(O)(C3)C1)C2 | – | healthy human subjects, plasma | oral, 10 mg, day 10, geometric mean, together with: diltiazem extended-release 360 mg | 0.325 µg·h/mL
CNC(=O)c1ccc(-c2cnc3ncc(Cc4ccc5ncccc5c4)n3n2)cc1F | – | healthy human subjects, plasma | oral, 400 mg, adjusted geometric mean, alone | 11.6 µg·h/mL
CCOc1c([C@H](C)n2nc(C)c3c(N)ncnc32)cc(Cl)c(F)c1[C@@H]1CNC(=O)C1 | – | healthy human, fasted | oral, 10 mg | 7.31 ± 0.792 µM·h
C=C(C)[C@@H]1CC[C@]2(NCCN3CCS(=O)(=O)CC3)CC[C@]3(C)[C@H](CC[C@@H]4[C@@]5(C)CC=C(C6=CC[C@@](CF)(C(=O)O)CC6)C(C)(C)[C@@H]5CC[C@]43C)[C@@H]12 | – | healthy human volunteers | oral, 200 mg, capsule, moderate-fat meal, arithmetic mean | 35.9 µg·h/mL
C=CC(=O)N1C[C@H](Nc2ncnc3[nH]ccc23)CC[C@@H]1C | adjusted geometric mean | human, plasma | oral, 50 mg single dose, together with: rifampicin 600 mg once daily for 8 days | 0.249 µg·h/mL
